Measured values pooled from the literature.
Numbered parts are unrelated; each lists some results of a single study.

Series 1
Target: RING finger protein unkempt homolog, zinc fingers 1-6, GST-SBP tag (UNK, Homo sapiens, UniProt Q9C0B0, residues 30-357)
Chain of UniProt Q9C0B0 (30-357, looked up): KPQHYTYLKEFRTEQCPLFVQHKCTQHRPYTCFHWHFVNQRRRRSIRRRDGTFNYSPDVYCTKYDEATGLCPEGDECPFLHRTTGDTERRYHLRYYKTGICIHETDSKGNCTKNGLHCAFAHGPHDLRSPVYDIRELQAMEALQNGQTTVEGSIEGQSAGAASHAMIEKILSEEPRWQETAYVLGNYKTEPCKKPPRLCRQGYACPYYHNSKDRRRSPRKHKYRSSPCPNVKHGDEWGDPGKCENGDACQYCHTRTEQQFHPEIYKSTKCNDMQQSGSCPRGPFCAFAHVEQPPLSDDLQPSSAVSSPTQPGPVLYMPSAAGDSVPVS
Technique: RNA Bind-n-Seq
Molecule type: RNA
Sample: in vitro
Concentration: not given
Notes: RNA with constant flanks, human and mouse sites, ends assumed
Reference: input RNA pool
Direction: higher = stronger binding
| Strand | bound/input enrichment |
| --- | --- |
| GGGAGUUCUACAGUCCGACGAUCCAUGCCUACACUGGUGCACCCCGGCCUCCCAUGAGGGCCCCUCCCUCCUCACCACAGUUGGUGUAUCCCACCACUGACACCACAGGGAACUCUCGCCGCACCCGCUCCUUCCGCAUCAGCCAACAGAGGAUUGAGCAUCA | 0.285 ratio |
| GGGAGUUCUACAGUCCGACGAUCCUUGUCUACCAUAUUGGCCUCACCCCAGCCAAACUUCCUGACCUUGUGGAAAACAACCCUUUAGUCGCUAUAGAAAUGUUGCUGAAAUUAAUGCAGUCAAGCCAGAUCACUGAGUAUUUCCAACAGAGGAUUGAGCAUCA | 2.21 ratio |
| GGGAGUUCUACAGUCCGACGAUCACAAAACAGAGCGAGAAAGCUUCUCCCUGCAGUCUUCUUGGAGGCCUCCUGGUUUCUCACCCAUUGUUGGUGGGUGUAUUUCAAUUUUUUGAUUCCCUGGACUGUGGGUUAUGAAAUCAACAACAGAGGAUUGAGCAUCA | 0.164 ratio |
| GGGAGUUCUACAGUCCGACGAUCCUCCAGACACAAGUAGCUGAAAUGUCCCGAGUGAUACGUGAUCUGCAGUCCAGGAGCUGUUUUAGAUUUCAUCAUUCUAGGCCAAGUGAGAACUCCUCAGUUCCUUGGGACAUCUCCACCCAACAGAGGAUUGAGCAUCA | 0.348 ratio |
| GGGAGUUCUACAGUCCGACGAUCUUAUACCAAGUUGAAUAUGCCAUGGAAGCUAUUGGACAUGCAGGCACCUGUUUGGGAAUUUUAGCAAAUGAUGGUGUUUUGCUUGCAGCAGAGAGACGCAACAUCCACAAGCUUCUUGAUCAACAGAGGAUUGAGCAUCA | 0.21 ratio |
| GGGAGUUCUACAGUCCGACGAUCAAUUUUGUGAUUUUAAUUCUGAUAAUGAAAUCUUAGCUAUUCUGUACGCAUUGUUGAAGAAAUAAUGUUUUUCAAAGUAGGCAGUUAGGUGUAGUUGGGUGAACAUUGAGAAAGGUAGCCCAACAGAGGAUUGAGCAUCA | 1 ratio |
| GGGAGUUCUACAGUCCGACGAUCAAUGGACAAGAAGUCAAAAUCGAUCAGAGAAAUGUUAAAAAAGAGUUCACUAGCCAUGCUUUAGAUUCUCAUAUCUUAGAUUAUUAUGAAAAUCCAGCCAUCAAAGAGGAUGUAUCAACACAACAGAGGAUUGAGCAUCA | 1.05 ratio |
| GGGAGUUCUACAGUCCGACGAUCGGCACAAGAGAUGAUGACCUCUCAGCCACUGUUAACAUUAAACAUAAAGAAGGAAUCUACAGUAAGAGGGUAGUGACUAAGGCAUCCUUGCCAGUGGGAGAAAAACCCUUGCAGAAUGAACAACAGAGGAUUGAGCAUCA | 0.25 ratio |
| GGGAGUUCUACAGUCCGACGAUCCCACCAGAUUCCAGCCAACAUGACUCUUGCAGCCUAUAAGGAGAAGAUGAAGGAACUCCCACUAGUGUCUCUGUUCUGCUCUUGCUUCUUGUCUGAUCCCCUGAAUAAAUCAUCCUACAACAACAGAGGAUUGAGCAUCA | 1.08 ratio |

Series 2
Target: Centromere-binding protein 1, full length, His-tagged (CBF1, Saccharomyces cerevisiae, UniProt P17106, residues 1-351)
Chain of UniProt P17106 (whole entry, looked up): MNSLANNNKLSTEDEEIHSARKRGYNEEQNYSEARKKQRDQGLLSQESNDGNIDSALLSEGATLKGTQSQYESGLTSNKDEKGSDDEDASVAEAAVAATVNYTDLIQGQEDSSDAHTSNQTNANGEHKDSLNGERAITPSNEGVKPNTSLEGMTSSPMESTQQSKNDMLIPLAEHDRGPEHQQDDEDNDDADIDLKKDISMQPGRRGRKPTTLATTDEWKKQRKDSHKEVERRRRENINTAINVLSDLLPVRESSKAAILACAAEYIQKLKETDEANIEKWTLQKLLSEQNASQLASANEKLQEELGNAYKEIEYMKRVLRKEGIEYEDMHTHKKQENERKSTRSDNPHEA
Technique: competition protein-binding microarray
Molecule type: double-stranded DNA, one strand shown
Sample: in vitro
Concentration: 2 µM
Notes: whole 60-bp probe, lowest competitor level
Together with: Pho4 competitor, 0.05 µM
Direction: higher = stronger binding
| Strand | fluorescence intensity [a.u.] |
| --- | --- |
| TACTGGAGTATTCGTCACGTGCCAGTGTGGCCCTGTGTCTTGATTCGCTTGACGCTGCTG | 7470 |
| CCCTGCTGCCAGTCCCACGTGCAGACGCACCTGCAGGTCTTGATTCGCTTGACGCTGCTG | 626 |
| TGCGCAACAACTTGGATTGTGGGTGTATGTCTAGAAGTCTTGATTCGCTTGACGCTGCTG | 70.5 |
| AAATTACTAAGTTGCGTCGTGGGTGACGCCGTATGAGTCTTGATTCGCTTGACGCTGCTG | 65.5 |
| TGCGCAACAACTTGGGACGTGGGTGTATGTCTAGAAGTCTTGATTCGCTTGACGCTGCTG | 68.4 |
| CTATGCAAGTTATGCCAGGTGACAGTGTTGAAATGGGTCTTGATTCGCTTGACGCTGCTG | 166 |
| TGCGCAACAACTTGACACGTGGGTGTATGTCTAGAAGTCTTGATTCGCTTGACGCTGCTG | 1040 |
| ACAGCATTCGACGGAGTCGTGGGTACTTACGAACGGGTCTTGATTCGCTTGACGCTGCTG | 51.9 |

Series 3
Target: Sal-like protein 4, full length isoform A (SALL4, Homo sapiens, UniProt Q9UJQ4, residues 1-1053)
Chain of UniProt Q9UJQ4 (whole entry, looked up): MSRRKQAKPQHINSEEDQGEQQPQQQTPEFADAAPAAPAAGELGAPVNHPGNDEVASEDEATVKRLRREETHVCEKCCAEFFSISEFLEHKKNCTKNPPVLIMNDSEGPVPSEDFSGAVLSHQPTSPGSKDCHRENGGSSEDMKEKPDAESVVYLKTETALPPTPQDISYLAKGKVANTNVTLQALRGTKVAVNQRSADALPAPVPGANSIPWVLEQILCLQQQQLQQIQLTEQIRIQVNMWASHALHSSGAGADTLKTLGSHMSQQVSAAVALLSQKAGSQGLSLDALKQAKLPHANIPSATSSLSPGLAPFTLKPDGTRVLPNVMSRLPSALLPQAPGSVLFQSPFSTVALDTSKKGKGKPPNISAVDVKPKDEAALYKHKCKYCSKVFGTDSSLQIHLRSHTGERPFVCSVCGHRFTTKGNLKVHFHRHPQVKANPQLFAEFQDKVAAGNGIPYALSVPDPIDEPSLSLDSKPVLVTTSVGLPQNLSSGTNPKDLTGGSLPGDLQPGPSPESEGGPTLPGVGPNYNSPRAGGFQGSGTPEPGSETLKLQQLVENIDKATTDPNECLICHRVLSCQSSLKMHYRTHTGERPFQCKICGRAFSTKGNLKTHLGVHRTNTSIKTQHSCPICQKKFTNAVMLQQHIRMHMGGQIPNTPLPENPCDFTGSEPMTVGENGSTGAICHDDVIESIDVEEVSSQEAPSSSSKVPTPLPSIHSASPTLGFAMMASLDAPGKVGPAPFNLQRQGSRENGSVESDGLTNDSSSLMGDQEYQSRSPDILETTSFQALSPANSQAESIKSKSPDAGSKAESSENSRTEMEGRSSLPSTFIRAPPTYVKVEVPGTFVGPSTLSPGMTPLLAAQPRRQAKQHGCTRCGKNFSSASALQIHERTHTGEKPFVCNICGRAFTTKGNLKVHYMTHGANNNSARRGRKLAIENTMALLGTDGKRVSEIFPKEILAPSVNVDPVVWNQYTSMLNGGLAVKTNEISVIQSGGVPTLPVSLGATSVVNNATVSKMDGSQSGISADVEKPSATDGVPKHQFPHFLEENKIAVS
Technique: universal PBM
Molecule type: double-stranded DNA, one strand shown
Sample: in vitro
Concentration: 600 nM
Notes: 8-mer, flanks averaged, mean of replicates
Direction: higher = stronger binding
| Strand | E-score |
| --- | --- |
| CACGATTC | -0.0205 |
| CTGGAGAA | -0.158 |
| AGCCGTTA | 0.0157 |
| ATGTCTTC | 0.127 |
| AGCCCGGC | -0.41 |
| TAGAACGA | 0.126 |
| GACACAGA | -0.00537 |
| CCTAGACA | -0.152 |
| CGGGAAGC | -0.142 |
| GACTTGCC | -0.312 |

Mixed results
| Substance | target | assay | system | setting | how to read | endpoint | value |
| --- | --- | --- | --- | --- | --- | --- | --- |
| PhoQ, residues 284 288 289 292 302 303 ALAMYF | PhoP, residues 12 14 15 18 19 HHYTI (Escherichia coli, UniProt P23836) | Sort-seq, refers to: YFP reporter | E. coli | PhoQ-PhoP variant library, together with: 10 µM Mg2+ | reference: high Mg2+ state, higher = stronger signaling | fold induction | 2.34 |
